Experimental data gathered from unrelated publications.
A part holds a random share of what one study measured. Several values in a cell are separate wells, animals, samples, runs or records.
Chain of UniProt Q8TDC3 (whole entry, looked up): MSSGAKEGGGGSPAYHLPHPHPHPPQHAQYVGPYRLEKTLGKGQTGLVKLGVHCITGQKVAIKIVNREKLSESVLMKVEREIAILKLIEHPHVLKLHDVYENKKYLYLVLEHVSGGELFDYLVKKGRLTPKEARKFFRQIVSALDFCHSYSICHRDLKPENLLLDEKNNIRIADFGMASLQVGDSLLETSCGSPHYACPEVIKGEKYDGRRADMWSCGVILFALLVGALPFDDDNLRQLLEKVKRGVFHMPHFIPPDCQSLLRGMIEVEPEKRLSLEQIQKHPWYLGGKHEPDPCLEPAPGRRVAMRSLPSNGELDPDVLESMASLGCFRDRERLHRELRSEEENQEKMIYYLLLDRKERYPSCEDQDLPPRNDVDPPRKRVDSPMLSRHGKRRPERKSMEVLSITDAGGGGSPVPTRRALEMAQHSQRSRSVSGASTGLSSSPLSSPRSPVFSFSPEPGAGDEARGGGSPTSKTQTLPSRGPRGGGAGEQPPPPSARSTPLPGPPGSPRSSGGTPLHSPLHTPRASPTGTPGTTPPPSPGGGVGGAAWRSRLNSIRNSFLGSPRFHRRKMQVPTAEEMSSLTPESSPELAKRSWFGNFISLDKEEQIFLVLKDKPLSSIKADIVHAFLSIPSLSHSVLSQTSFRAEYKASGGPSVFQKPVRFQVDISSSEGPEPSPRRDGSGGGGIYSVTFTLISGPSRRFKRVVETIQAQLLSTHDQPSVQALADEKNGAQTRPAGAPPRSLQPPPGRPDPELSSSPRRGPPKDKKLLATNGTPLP
Chain of UniProt Q9UF33 (whole entry, looked up): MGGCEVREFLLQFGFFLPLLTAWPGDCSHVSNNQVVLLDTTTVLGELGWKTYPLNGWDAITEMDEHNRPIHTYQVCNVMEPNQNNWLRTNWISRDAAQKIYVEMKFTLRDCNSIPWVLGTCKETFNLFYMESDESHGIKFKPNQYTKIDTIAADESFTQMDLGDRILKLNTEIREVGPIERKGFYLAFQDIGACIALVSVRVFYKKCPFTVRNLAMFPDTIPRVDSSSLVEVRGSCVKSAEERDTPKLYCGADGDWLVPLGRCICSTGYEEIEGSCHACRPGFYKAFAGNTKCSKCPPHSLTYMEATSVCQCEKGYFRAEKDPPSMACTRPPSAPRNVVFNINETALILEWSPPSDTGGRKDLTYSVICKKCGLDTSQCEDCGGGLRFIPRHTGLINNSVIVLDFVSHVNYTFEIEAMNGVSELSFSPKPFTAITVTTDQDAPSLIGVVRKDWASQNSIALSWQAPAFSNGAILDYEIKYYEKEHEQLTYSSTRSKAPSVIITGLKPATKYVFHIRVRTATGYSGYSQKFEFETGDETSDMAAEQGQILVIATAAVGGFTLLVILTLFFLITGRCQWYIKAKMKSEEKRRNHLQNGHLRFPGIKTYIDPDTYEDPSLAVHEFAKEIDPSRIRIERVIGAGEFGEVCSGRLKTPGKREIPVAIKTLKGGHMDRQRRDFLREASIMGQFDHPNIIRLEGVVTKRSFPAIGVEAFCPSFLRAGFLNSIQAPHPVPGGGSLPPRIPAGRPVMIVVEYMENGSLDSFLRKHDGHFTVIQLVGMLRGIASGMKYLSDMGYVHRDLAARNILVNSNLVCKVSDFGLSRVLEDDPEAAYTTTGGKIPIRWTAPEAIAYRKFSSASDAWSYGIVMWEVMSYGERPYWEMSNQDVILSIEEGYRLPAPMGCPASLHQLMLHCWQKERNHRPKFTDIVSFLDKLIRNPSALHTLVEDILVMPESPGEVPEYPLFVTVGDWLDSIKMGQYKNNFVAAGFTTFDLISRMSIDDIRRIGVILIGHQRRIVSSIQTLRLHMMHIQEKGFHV
Chain of UniProt Q8IVW4 (whole entry, looked up): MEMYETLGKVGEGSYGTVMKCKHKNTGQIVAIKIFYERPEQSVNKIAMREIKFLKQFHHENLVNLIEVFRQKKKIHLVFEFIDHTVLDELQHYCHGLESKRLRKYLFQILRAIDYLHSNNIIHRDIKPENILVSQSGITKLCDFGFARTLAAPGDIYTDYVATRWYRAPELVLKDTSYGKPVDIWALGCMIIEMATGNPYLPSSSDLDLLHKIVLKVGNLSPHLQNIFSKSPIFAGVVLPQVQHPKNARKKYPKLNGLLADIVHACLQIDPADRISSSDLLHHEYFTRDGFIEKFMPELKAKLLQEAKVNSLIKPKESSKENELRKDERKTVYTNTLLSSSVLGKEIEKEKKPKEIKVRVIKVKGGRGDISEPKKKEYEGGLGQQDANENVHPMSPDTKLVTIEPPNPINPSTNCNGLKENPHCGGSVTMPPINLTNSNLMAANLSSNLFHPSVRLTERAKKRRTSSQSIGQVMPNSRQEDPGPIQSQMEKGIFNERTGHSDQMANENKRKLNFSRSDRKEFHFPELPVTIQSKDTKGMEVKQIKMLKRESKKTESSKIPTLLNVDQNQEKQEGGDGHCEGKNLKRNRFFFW

Study 1
SMILES: COc1ccc2[nH]c3c4[nH]c5ccc(OC)cc5c4c4c(c3c2c1)C(=O)NC4=O
Effect on: binding
Tested at: 1 µM
Quantity: remaining binding
EGFR (Homo sapiens, UniProt P00533, del746-750): 20%
ERBB2 (Homo sapiens, UniProt P04626); competition with immobilised ligand: 100%
NTRK2 (Homo sapiens, UniProt Q16620); competition with immobilised ligand: 59%
MAP3K13 (Homo sapiens, UniProt O43283); competition with immobilised ligand: 77%
EGFR (Homo sapiens, UniProt P00533, G719S): 57%
CSNK1G2 (Homo sapiens, UniProt P78368): 86%

Study 2
SMILES: O=C(NCc1ncc(C(F)(F)F)cc1Cl)c1ccc2c(c1)C1(CCS(=O)(=O)CC1)[C@@H](C1CC1)N2S(=O)(=O)c1ccc(F)cc1
Tested at: 1 µM
Quantity: remaining binding
WNK2 (Homo sapiens, UniProt Q9Y3S1); cell-free assay, competition with immobilised ligand: 0%
PRKD3 (Homo sapiens, UniProt O94806); cell-free assay, competition with immobilised ligand: 100%
SYK (Homo sapiens, UniProt P43405); cell-free assay, competition with immobilised ligand: 100%
SBK1 (Homo sapiens, UniProt Q52WX2); cell-free assay, competition with immobilised ligand: 92%
MAPK1 (Homo sapiens, UniProt P28482); cell-free assay, competition with immobilised ligand: 83%
CDKL3 (Homo sapiens, UniProt Q8IVW4); cell-free assay, competition with immobilised ligand: 100%
PDGFRB (Homo sapiens, UniProt P09619); cell-free assay, competition with immobilised ligand: 77%
CDK19 (Homo sapiens, UniProt Q9BWU1); competition binding: 100%
STK35 (Homo sapiens, UniProt Q8TDR2); cell-free assay, competition with immobilised ligand: 93%
Ribosomal protein S6 kinase alpha-5, C-terminal kinase domain (RPS6KA5, Homo sapiens, UniProt O75582); cell-free assay, competition with immobilised ligand: 97%
SIK1 (Homo sapiens, UniProt P57059); competition binding: 89%
MAP2K7 (Homo sapiens, UniProt O14733); cell-free assay, competition with immobilised ligand: 79%
EPHA6 (Homo sapiens, UniProt Q9UF33); cell-free assay, competition with immobilised ligand: 100%
MAPK15 (Homo sapiens, UniProt Q8TD08); cell-free assay, competition with immobilised ligand: 100%
PAK2 (Homo sapiens, UniProt Q13177); cell-free assay, competition with immobilised ligand: 84%
FLT3 (Homo sapiens, UniProt P36888, D835Y); cell-free assay, competition with immobilised ligand: 100%
LCK (Homo sapiens, UniProt P06239); cell-free assay, competition with immobilised ligand: 100%
BRSK1 (Homo sapiens, UniProt Q8TDC3); cell-free assay, competition with immobilised ligand: 100%
MATK (Homo sapiens, UniProt P42679); cell-free assay, competition with immobilised ligand: 74%
STK17B (Homo sapiens, UniProt O94768); cell-free assay, competition with immobilised ligand: 87%

Study 3
Compound: CC(C)n1cnc(-c2ccc(F)cc2)c1-c1ncc(C(=O)Nc2ccc(N3CCN(C)CC3)cc2)[nH]1
Quantity: patients with TEAE
phase 2a trial; patients with idiopathic pulmonary fibrosis; 30 mg once daily, atopic dermatitis, grade 2: 0%
phase 2a trial; idiopathic pulmonary fibrosis patients; oral, dose not given, LDL increased, grade 2, all arms: 0%
refers to: hypothyroidism grade 5; idiopathic pulmonary fibrosis patients; 30 mg once daily: 0%
phase 2a trial; patients with idiopathic pulmonary fibrosis; 30 mg once daily, endocrine disorders SOC, grade 1: 0%
phase 2a trial; patients with idiopathic pulmonary fibrosis; 30 mg once daily, eye swelling, grade 4: 0%

Study 4
Target: DNA polymerase theta, ATPase domain (POLQ, Homo sapiens, UniProt O75417)
Chain of UniProt O75417 (whole entry, unmodified, looked up): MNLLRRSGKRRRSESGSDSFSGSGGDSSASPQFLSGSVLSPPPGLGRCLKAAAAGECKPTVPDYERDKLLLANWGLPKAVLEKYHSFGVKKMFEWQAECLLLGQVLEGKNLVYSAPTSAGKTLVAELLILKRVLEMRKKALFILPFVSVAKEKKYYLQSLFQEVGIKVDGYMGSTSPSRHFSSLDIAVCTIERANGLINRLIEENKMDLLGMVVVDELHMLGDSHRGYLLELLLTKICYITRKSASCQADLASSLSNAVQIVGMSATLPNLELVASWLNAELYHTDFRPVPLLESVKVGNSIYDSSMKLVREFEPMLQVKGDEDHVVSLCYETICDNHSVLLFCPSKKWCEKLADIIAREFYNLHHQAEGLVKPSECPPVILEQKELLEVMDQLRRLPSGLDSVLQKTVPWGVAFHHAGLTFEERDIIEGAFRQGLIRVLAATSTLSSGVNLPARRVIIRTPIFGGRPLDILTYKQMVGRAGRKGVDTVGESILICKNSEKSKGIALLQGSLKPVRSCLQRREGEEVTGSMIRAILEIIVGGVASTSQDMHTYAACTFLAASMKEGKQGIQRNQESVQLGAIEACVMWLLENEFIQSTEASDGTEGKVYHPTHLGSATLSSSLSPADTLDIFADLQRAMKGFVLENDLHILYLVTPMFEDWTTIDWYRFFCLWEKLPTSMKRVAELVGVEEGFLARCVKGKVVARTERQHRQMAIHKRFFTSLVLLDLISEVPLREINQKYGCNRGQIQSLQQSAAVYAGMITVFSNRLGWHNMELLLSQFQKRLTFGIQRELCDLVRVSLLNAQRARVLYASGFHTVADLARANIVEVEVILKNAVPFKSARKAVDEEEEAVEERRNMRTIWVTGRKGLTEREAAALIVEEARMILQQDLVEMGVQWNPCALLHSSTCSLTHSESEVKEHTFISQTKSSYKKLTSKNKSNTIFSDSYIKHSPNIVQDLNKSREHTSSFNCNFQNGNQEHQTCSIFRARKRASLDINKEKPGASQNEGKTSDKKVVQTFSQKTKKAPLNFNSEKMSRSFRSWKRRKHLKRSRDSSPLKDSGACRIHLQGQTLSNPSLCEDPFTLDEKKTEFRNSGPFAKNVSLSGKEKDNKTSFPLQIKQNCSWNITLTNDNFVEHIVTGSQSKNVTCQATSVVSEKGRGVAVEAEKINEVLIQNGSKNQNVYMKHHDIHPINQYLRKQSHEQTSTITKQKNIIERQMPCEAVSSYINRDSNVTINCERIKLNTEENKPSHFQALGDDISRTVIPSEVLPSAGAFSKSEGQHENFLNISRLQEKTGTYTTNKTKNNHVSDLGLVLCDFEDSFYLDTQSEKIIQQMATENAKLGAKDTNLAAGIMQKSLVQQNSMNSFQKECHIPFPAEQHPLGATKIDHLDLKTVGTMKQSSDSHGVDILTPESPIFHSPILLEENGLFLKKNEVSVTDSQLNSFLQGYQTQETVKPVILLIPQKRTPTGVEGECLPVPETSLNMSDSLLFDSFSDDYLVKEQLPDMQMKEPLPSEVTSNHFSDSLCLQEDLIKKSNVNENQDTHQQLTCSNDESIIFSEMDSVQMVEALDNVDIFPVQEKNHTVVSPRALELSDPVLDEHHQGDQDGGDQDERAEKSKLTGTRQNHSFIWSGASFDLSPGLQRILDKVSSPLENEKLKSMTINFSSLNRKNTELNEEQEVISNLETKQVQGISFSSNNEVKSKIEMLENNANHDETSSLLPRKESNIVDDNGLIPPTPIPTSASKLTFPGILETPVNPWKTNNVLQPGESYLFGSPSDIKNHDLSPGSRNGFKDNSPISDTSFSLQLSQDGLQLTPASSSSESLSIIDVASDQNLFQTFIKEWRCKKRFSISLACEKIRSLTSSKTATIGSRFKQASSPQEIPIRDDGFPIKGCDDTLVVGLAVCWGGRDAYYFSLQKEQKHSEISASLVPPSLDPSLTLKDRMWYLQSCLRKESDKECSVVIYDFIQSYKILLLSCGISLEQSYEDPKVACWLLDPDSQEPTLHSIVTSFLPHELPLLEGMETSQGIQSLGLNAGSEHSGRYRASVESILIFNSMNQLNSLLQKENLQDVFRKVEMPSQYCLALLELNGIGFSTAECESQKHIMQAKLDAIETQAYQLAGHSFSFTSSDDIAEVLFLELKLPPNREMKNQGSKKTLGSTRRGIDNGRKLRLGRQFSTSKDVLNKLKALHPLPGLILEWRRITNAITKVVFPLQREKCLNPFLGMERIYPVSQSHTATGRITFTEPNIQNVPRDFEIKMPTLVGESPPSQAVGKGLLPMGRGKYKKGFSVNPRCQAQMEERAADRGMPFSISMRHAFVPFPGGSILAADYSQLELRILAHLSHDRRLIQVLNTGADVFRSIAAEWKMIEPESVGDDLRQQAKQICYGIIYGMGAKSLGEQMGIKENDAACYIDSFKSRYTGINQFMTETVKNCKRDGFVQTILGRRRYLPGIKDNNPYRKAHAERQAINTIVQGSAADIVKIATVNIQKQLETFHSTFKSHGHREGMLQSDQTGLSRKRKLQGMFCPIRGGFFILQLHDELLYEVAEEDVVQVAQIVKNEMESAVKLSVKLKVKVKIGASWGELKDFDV
Effect on: enzyme activity
Mode: inhibitor
Tested at: 77 µM
Relative to: untreated
Quantity: remaining activity
Fc1ccc(CN(C2=NCCN2)c2c(Cl)cccc2Cl)cc1: 103%
CCCCN(CC)c1nc(C)nc2c1c(C)cn2-c1c(C)cc(C)cc1C: 95.9%
CCOC(=O)C1=C(COCCN)NC(C)=C(C(=O)OC)C1c1ccccc1Cl (stereo not drawn): 96.4%
CC(=O)NCCc1c[nH]c2ccc(O)cc12: 91.1%
CC(=O)O/N=C1/C(c2c(O)[nH]c3cc(Br)ccc23)=Nc2ccccc21: 103%

Study 5
Species: human
Sample: microsomes or S9
Tested at: 2 µM
Time: 0.5 h
Quantity: remaining compound
COc1ccc(OC)c(NC(=O)c2ccc(N(C)S(=O)(=O)c3ccc(OC)c(OC)c3)cc2)c1: 79.5%
COc1cc(Cl)c(NC(=O)c2cc(S(=O)(=O)N3CCOCC3)cn2C)c(OC)c1: 59.8%
COC(=O)N1CC(C)CN(c2ccc(NC(=O)Nc3cc(C)ccc3OC)cc2)S1(=O)=O (stereo not drawn): 52%
Cn1nccc1-c1cccc(-c2ccc(=O)n(C)n2)c1: 96.8%

Study 6
SMILES: CCOc1ccc(Nc2c3c(nc4ccccc24)CCC3)cc1
Organism: Leishmania donovani
Strain: DD8
Quantity: inhibition
parasite killing; promastigotes; 66.66 µM, 24 h: 100% and 99%
parasite viability, resazurin; promastigotes; 0.0033 µM: -2% and 5% and -5% and -3%
parasite killing; promastigotes; 3.33 µM, 48 h: 62% and 69% and 61%
parasite viability, resazurin; promastigotes; 0.33 µM: -4% and 4% and -1% and 0% and -3% and 5%
parasite killing; intracellular amastigotes; 20 µM, 24 h: 67% and 68% and 66%
